Measurements from different studies.
Every numbered part comes from another study and shows a few of its results, in no order. Substitutions count along the parent as printed.

Block 1 — method: protein binding microarray; molecule type: double-stranded DNA, one strand shown; matrix: in vitro; tested at: not given; reference: not given; direction: higher = stronger binding; endpoint: E-score
Target: Histone acetyltransferase KAT6A, both winged helices, GST fusion (KAT6A, Homo sapiens, UniProt Q92794, residues 1-181)
Setting: 8-mer, flanks averaged, mean of 2 arrays, mostly near background
Construct (chain): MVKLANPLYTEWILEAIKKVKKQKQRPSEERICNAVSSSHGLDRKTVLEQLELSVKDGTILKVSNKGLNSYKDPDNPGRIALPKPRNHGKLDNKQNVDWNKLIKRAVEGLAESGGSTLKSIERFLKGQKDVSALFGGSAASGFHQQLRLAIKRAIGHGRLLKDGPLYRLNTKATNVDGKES
AAGCCGTG: 0.251
CTCCAGAC: -0.133
CTTCGATC: -0.116
GTTCGGGA: -0.0317
AGCCGTGA: 0.282
AGTCTGAA: -0.0632
CCCCCGAC: 0.0796
TCATCTCA: -0.13
GGACTCCA: -0.0103
CTACAGGC: -0.00242
CCATATGG: 0.0317
ATCTGGAG: -0.133
ATCTAACC: -0.017
TAAGAGCA: -0.207
AGAGGGTG: -0.193
AAGGGCCT: -0.161
CCGAATGC: 0.201
ACCATCTA: -0.23
GCATTCGC: 0.134
GTTCGGTA: 0.0827
GCACAAGC: -0.0737
GTTATTCA: -0.00987
GAATTCAC: -0.0199
ATTGGTCC: -0.0121
CCTACCGC: 0.135

Block 2 — target: CDC34 UBC core domain (UniProt P49427); method: yeast two-hybrid; matrix: yeast; setting: mostly zero background; reference: not given; direction: higher = stronger interaction; endpoint: lacZ reporter activity
B1: RNF187 RING domain (UniProt Q5TA31); chain ALPAGPAEAACALCQRAPREPVRADCGHRFCRACVVRFWAEEDGPFPCPECADDCWQRAVEP
B2: RNF152 RING domain (UniProt Q8N8N0); chain ETLSQDSLLECQICFNYYSPRRRPKLLDCKHTCCSVCLQQMRTSQKDVRCPWCRGVTKLPPGFS
B3: RNF2 RING domain (UniProt Q99496); chain SPRSLHSELMCPICLDMLKNTMTTKECLHRFCADCIITALRSGNKECPTCRKKLVSKRSLR
B4: TRIM31 RING domain (UniProt Q9BZY9); chain FVNKLQEEVICPICLDILQKPVTIDCGHNFCLKCITQIGETSCGFFKCPLCKTSVRKNAIRF
Construct (chain): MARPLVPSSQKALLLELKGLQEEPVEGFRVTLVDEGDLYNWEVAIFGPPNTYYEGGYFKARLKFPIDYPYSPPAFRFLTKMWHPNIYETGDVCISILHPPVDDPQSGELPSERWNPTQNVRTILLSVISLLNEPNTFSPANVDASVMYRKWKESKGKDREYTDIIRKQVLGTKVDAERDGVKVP
B1 (RNF187 RING domain): 0
LDAASGHPLVCPLCHGQYERPCLLDCFHDFCTGCLRGRATDGRLSCPLCQHQTLVKGPSG (Rnf207 RING domain (UniProt Q3V3A7)): 0
PEELAVNNDDCAICWDSMQAARKLPCGHLFHNSCLRSWLEQDTSCPTCRMSLNIADNNR (AMFR RING domain (UniProt Q9UKV5)): 0
LGTKLEAKYLCSACRNVLRRPFQAQCGHRYCSFCLASILSSGPQNCAACVHEGIYEEGIS (TRAF2 RING domain (UniProt Q12933)): 0
B2 (RNF152 RING domain): 0
B3 (RNF2 RING domain): 0
AEADPLGRFTCPVCLEVYEKPVQVPCGHVFCSACLQECLKPKKPVCGVCRSALAPGVRAV (RNF114 RING domain (UniProt Q9Y508)): 0
MNDVLENELQCIICSEYFIEAVTLNCAHSFCSYCINEWMKRKIECPICRKDIKSKTYSL (RNF8 RING domain (UniProt O76064)): 0
QVQSRTKIEECVVCSDKKAAVLFQPCGHMCACENCANLMKKCVQCRAVVERRVPFI (MIB1 RING domain (UniProt Q86YT6)): 0
B4 (TRIM31 RING domain): 0

Block 3 — method: competition protein-binding microarray; molecule type: double-stranded DNA, one strand shown; matrix: in vitro; tested at: 2 µM; added: Pho4 competitor, 0.05 µM; direction: higher = stronger binding; endpoint: fluorescence intensity; shared flanks, not repeated: … GTCTTGATTCGCTTGACGCTGCTG
Target: Centromere-binding protein 1, full length, His-tagged (CBF1, Saccharomyces cerevisiae, UniProt P17106, residues 1-351)
UniProt P17106, sequence (whole entry, looked up): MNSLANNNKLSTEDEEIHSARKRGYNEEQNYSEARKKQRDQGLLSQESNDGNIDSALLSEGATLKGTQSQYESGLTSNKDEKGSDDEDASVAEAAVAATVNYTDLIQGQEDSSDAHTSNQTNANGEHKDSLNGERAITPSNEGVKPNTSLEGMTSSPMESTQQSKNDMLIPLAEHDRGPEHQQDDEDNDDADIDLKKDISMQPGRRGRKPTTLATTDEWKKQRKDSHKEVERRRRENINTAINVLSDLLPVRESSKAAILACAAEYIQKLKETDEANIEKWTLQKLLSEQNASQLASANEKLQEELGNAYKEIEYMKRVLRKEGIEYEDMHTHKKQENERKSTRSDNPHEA
Setting: whole 60-bp probe, lowest competitor level
CGGGGTTAAGTTTGCTCAGTGGGTGGCTTGCAGCAG: 69.8 a.u.
CTTCTGTAAATTTGTAATGTGGGTGGACGCGCCCCG: 79.1 a.u.
CGGGGTTAAGTTTGGTCCGTGGGTGGCTTGCAGCAG: 73.1 a.u.
CGGGGTTAAGTTTGTCACGCCACTTGCTTGCAGCAG: 192 a.u.
TTTGATTGGTAAACACACGTGGTTACATGAATTCTT: 1340 a.u.
CGGGGTTAAGTTTTTCACGTGGGCTGCTTGCAGCAG: 548 a.u.
AGTATCCTCGACCTACACGTCTTCACCATCAGCACC: 64.6 a.u.
TGCGCAACAACTTGTCACGCGACTTTATGTCTAGAA: 942 a.u.
CTAACGAAGGTTTGAGTGGTGGGTGACAAGCCAAGT: 74.8 a.u.
CGGGGTTAAGTTTGTACAGTGGGTGGCTTGCAGCAG: 78.6 a.u.
CGGGGTTAAGTTTGAGCCGTGGGTGGCTTGCAGCAG: 55.5 a.u.
CGGGGTTAAGTTTGACCTGTGGGTGGCTTGCAGCAG: 61.1 a.u.
AAAGCGGTAATTTGTGCAGTGGGTGCAGATATCTAT: 87.8 a.u.
CCAGTACGATTCCGTCACGTGACTCGCGATCAACTA: 25600 a.u.
AGTAAAAGACGAAAGCACGTTAACAATGGAACACTC: 89.2 a.u.
ATTATCTAGGTGCTACACGTGTTGGGACAGACTTAT: 942 a.u.
AGGTTAACCTTTAAATATAAATATAGTAATCTTCAT: 87.5 a.u.
TTTCAGGTTCTTGTACACGTGGAACCGCCCGATATA: 733 a.u.
CGGGGTTAAGTTTGTGTGGTGGGTGGCTTGCAGCAG: 70.5 a.u.
TTATTCAAATGAAATACAATTCTTTTCAAAGTTTGG: 77.9 a.u.
CAAGTCAAGTTTCAACACGTAGTCTTGAACAGTGGG: 68.2 a.u.
CGTCGGCCCAACTTGATCATGCAATTAGCAAGCAAC: 69.9 a.u.

Block 4 — target: ATF2, bZIP domain (human); method: DHFR protein complementation; matrix: yeast; reference: wild-type JUN-FOS pair; direction: higher = stronger binding; endpoint: binding fitness
Setting: single substitutions, most at no-binding floor
Starting sequence: JUN, bZIP domain (human); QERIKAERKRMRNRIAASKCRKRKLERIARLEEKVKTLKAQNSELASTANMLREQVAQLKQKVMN; partner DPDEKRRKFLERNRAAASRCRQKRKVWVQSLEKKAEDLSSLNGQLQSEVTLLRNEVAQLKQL
E32K: -1.37 natural log
L45G: -1.51 natural log
A29K: -1.34 natural log
S47K: -1.19 natural log
Q41H: -1.5 natural log
E44Q: -1.41 natural log
R30T: -1.27 natural log
L45W: -1.45 natural log
Q55S: -1.41 natural log
M51H: -1.48 natural log
Q41R: -1.43 natural log
S47L: -1.43 natural log
I28N: -1.59 natural log
K39E: -1.29 natural log
L52P: -1.53 natural log
L45R: -1.45 natural log
V56L: -1.46 natural log
A40M: -1.41 natural log
K34Y: -1.21 natural log
R53Q: -1.55 natural log
V56R: -1.43 natural log
A49T: -1.53 natural log
M51A: -1.44 natural log
E33I: -1.42 natural log
S43G: -1.38 natural log

Block 5 — target: CCNF, cyclin fold, Cln2 fusion (human); method: yeast growth competition, sequencing; matrix: yeast; setting: strong parent motif; reference: not given; direction: higher = stronger binding; endpoint: normalised enrichment score
Starting sequence: CCP110 docking peptide (human); EKVKRRLDLDIDG
D8A: 5.79
G13A: 6.33
R5A L7A: 0.0646
V3A: 4.82
L9A: 1.01
L9F: 7.44
E1A: 8.1
R5K L9F: 7.15
I11A: 5.18
R5A: 0.495

Some of these lines once more (block 4):
E32K: -1.37 natural log
S47K: -1.19 natural log
M51A: -1.44 natural log
L45W: -1.45 natural log
S47L: -1.43 natural log
I28N: -1.59 natural log
E33I: -1.42 natural log
Q41H: -1.5 natural log
V56R: -1.43 natural log
A40M: -1.41 natural log
A29K: -1.34 natural log
V56L: -1.46 natural log
M51H: -1.48 natural log
